Published values of several laboratories.
A part holds a random share of what one study measured. Substitutions count along the parent as printed.

Set 1
Target: RNA binding protein fox-1 homolog 2, RRM domain, GST-SBP tag (RBFOX2, Homo sapiens, UniProt O43251-10, residues 100-194)
Technique: RNA Bind-n-Seq
Form: RNA
Medium: in vitro
Tested at: 365 nM
Setting: natural RNA segment, single round, ends assumed
Relative to: no-protein control
Reading: higher = stronger binding
Shared flanks, not repeated: GGGAGUUCUACAGUCCGACGAUC … UGGAAUUCUCGGGUGCCAA
Target sequence (chain): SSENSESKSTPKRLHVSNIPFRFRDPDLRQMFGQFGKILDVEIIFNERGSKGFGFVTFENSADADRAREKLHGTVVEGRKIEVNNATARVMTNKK
| Oligonucleotide | RBNS enrichment (R) |
| --- | --- |
| CAGUCUGGGCCUCAGACUCAGACUGCUGUAUCUAGCCUACGUUGUCACAAUUUCCUUCUCUGUUAACUCUGUGACUGUUCUUCCUUUUGCUACUCUCGACGUAACAUAUA | 0.316 |
| GGGCUCUUCUGGUCCUGUGCAUACCUAUUGCCUUUGACAGAACGGUACAGUUUGUUUAUGCAGGAGGAUGGCAUGCCAACUUCCCAGCUGCCUACUAGCAGUUUAACAAG | 0.513 |
| UUGGAUUUGACCCCUUGGCUCUCAAGUGUCCCCUUAGAUCUAGAACUGCUCCUUGGUGGCCAUUAGAUCGAGUCAGUUUUGAUCUGCAUCACUUAGUUAUUGGGAAUUUC | 0.45 |
| ACCCAUGGUACCAAUCAUGAAUCUUUGUUUCAGGUUCAGUAUUAUGUAGUUGUUCGUUGGUUAUACAAGUUCUUGGUCCCUCCAGAACCACCCCGGCCCCCUGCCCGUUC | 0.335 |
| GGGUACAGGGUUCCCAGCCUCAGGUUCCUGGAGGCCAAUGUCCAGCAAGAUCAUGCCUUCUCUGUCUGGAAGAGGCAACAGUUUGGAGAUCCUGUCAUCAUGGGACGUCA | 0.439 |
| CUGGGGCAAGAGGGCUAGAUUUCCUCAUUUUGUUAUGAGACUAGAUUGGUACCAGUAGAUCAGCUGCCUAGCGAGGGCAGGUUUCUUCUUUGCAUCUGUGUGGCUUGCUU | 2.14 |
| GCUUUAAGUGUGGUUGGUUUAGGAGAGUUUUCCUUGGGAGAGCUAGCCCUGAGGUAGUCAGGGCUAGCUCCGGAUGGCUGGAGAAGCUGACCUUGUGCCUUAAGUCUACU | 0.243 |
| AACAAGGUUUGAGGAGGAAGUAGUUGCCUGUCCCAGCCUCAUCUGCUGAGCUCUUUAAGGAAGGUGGUGCAGAAAGCCGUGCUGUGCUUUCCCUGUGUGGUCUGCCCUCC | 1.65 |
| ACCAAGAGCAGAGGCAACAAAUAGAGGCCUGGCCUCCAGGUGCCGGAUCCAGACACCUGACCUAGAAUGCCUGCCCGCUAUCCCUGUGGCAGGAAAUAUCCCCUCAUGUC | 0.426 |
| AAGCUGCGUUCUCCCAGACGCCUUAACAGCAGUCCCCGCACCCCCAUCAGCCCCCUCAAGUUCUCUCCCUUUGAGGGGUUCCGGCCCAGUCCCGGCCCACCAGAGCCCAU | 0.653 |
| UCUGCAGACCCUUCCCCCACUGCUCAAAGUCCUCCCGUGCUUGGUGUGUGGGACCACCGGCUCCACCCUCCCCGCCCAUCACCAUUGCAGUUUUGCUAGAAGCUGGCGCU | 0.88 |
| GUGUAUAUUGGUGUAUAUUAUAUAACUCUUUGAGCCUUUAUUGGUAAAUUCUGGUAUACAUUGAAUUCAUUAUAAUUUGGGUGACUAGAACAACUUGAAGAUUGUAGCAA | 0.528 |

Set 2
Target: CCNE1, cyclin fold, Cln2 fusion (human)
Technique: yeast growth competition, sequencing
Medium: yeast
Setting: weak parent motif
Relative to: not given
Reading: higher = stronger binding
Starting sequence: WEE1 docking peptide (human); HKTFRKLRLFDTP
| Variant | normalised enrichment score |
| --- | --- |
| TKTFRKLRLFDTP [H1T] | 0.883 |
| HKQFRKLRLFDTP [T3Q] | 0.06 |
| MKTFRKLRLFDTP [H1M] | 0.339 |
| HKTFRDLRLFDTP [K6D] | 0.836 |
| HITFRKLRLFDTP [K2I] | 0.458 |
| HKTFRKLRLGDTP [F10G] | -0.337 |
| HKTFRKLRLFVTP [D11V] | 0.922 |
| RKTFRKLRLFDTP [H1R] | 0.44 |
| HKTFRKLRLFHTP [D11H] | -0.626 |
| HKTFRKLRLFQTP [D11Q] | 1.77 |
| HKTFRKLRLFDQP [T12Q] | 0.0661 |
| HKPFRKLRLFDTP [T3P] | 0.853 |
| HKTFPKLRLFDTP [R5P] | -0.0437 |
| HKTFRKHRLFDTP [L7H] | -0.455 |
| HKTFRKLRLFDTQ [P13Q] | -0.455 |
| HKTFRKLRLCDTP [F10C] | 0.485 |
| HKIFRKLRLFDTP [T3I] | 0.972 |
| NKTFRKLRLFDTP [H1N] | 0.839 |
| HKTFRKLSLFDTP [R8S] | 0.773 |
| HKTFRKLRDFDTP [L9D] | 0.655 |
| SKTFRKLRLFDTP [H1S] | 1.21 |
| HKTFRKLRHFDTP [L9H] | -0.0923 |
| HKTFRKLRLFDKP [T12K] | 0.48 |
| HKTFRKLRLFDTL [P13L] | 0.33 |
| HKTFLKLRLFDTP [R5L] | 0.373 |

Set 3
Target: Sal-like protein 4, full length isoform A (SALL4, Homo sapiens, UniProt Q9UJQ4, residues 1-1053)
Sequence of UniProt Q9UJQ4 (whole entry, looked up): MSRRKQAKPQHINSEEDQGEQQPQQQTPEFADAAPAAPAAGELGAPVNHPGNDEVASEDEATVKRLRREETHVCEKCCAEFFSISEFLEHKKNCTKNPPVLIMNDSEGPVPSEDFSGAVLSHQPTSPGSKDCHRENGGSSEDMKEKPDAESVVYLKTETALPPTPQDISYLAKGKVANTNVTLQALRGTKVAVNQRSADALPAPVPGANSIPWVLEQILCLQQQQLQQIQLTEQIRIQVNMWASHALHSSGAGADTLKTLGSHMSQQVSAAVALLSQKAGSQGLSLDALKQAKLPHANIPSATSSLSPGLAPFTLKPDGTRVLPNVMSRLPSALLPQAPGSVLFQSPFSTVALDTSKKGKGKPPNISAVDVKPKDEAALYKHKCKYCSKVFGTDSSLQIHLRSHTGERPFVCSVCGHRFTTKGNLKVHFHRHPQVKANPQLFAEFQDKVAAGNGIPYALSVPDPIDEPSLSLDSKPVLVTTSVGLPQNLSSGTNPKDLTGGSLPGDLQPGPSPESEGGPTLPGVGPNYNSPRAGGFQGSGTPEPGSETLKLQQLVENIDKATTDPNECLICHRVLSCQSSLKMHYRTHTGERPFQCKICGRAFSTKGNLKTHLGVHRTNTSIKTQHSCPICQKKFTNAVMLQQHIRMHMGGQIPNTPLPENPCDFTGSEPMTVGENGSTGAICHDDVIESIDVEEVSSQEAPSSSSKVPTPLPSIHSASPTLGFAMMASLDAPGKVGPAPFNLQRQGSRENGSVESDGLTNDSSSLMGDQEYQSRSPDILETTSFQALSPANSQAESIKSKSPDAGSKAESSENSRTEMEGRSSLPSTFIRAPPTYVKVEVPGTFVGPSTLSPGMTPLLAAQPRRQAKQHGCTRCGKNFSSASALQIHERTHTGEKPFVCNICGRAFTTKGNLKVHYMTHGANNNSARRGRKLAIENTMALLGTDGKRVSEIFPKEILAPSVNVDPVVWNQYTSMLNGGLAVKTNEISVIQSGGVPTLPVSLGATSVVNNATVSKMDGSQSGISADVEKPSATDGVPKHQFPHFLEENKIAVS
Technique: universal PBM
Form: double-stranded DNA, one strand shown
Medium: in vitro
Tested at: 600 nM
Setting: 8-mer, flanks averaged, mean of replicates
Reading: higher = stronger binding
| Oligonucleotide | E-score |
| --- | --- |
| ATCTTGAG | 0.0671 |
| CCGGCTCC | -0.406 |
| CGAAATCA | 0.15 |
| GAGTGGGC | -0.199 |
| AGGTCGGC | -0.227 |
| ATTTGAAG | 0.202 |
| AAAGAGAT | 0.057 |
| CGCGCCTA | -0.114 |
| GATGCTTA | 0.0514 |
| ATGGGGAG | -0.0408 |
| CTCAGATC | -0.0184 |
| ACACACGG | -0.29 |
| ACTTAGCG | 0.0196 |
| ATGGTAAC | 0.15 |
| AGTATGTG | 0.128 |
| CTGCCACC | -0.25 |
| GGGCCTAC | -0.355 |
| ACAAGTCT | 0.201 |
| ATAGGAGG | 0.0131 |
| AAGGACCT | 0.0104 |
| GGACTAAC | -0.146 |
| TCAGGACA | -0.03 |
| AGCGAAAA | 0.0828 |
| GAACTAGC | -0.133 |
| GAACGTTC | -0.186 |

Set 4
Target: Transcription factor SOX-2, HMG box (SOX2, Homo sapiens, UniProt P48431, residues 19-118)
Sequence of UniProt P48431 (19-118, looked up): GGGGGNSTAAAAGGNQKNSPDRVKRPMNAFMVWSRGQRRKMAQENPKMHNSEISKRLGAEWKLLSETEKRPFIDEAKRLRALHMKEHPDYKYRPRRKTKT
Technique: protein-binding microarray
Form: double-stranded DNA, one strand shown
Medium: in vitro
Tested at: not given
Setting: k-mer, scored over probes, only values ≥0.25
Reading: higher = stronger binding
| Oligonucleotide | E-score |
| --- | --- |
| ATGAATC | 0.336 |
| CAATGCA | 0.311 |
| CAATTCC | 0.277 |
| ATTATTG | 0.422 |
| AAAATTG | 0.274 |
| ATACTAT | 0.268 |
| TAATGTA | 0.296 |
| CAAAGAA | 0.29 |
| CAATTAA | 0.346 |
| CATAATA | 0.355 |
| AATGGCT | 0.281 |
| CTATTCA | 0.396 |
| AAAATTC | 0.257 |
| AACATTG | 0.283 |
| ATAATAT | 0.386 |
| ACACAAT | 0.458 |
| ATGATAA | 0.291 |
| CACAATC | 0.28 |
| ATTAATA | 0.351 |
| CAATATG | 0.321 |
| TAAATAA | 0.311 |
| TATTTAA | 0.289 |
| CAATGAA | 0.377 |
| ACAAATA | 0.331 |

Set 5
Target: NFIL3, bZIP domain (human)
Technique: DHFR protein complementation
Medium: yeast
Setting: single substitutions, most at no-binding floor
Relative to: wild-type JUN-FOS pair
Reading: higher = stronger binding
Starting sequence: JUN, bZIP domain (human); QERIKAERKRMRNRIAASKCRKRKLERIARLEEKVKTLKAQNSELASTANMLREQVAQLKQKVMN; partner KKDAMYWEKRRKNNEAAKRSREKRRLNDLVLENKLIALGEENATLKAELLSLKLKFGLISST
| Variant | binding fitness |
| --- | --- |
| T48H | -1.55 natural log |
| V56G | -1.51 natural log |
| K36L | -1.46 natural log |
| R53C | -1.13 natural log |
| N42R | -1.5 natural log |
| S47W | -1.45 natural log |
| L38G | -1.47 natural log |
| E54W | -1.47 natural log |
| Q55R | -1.51 natural log |
| E32N | -1.41 natural log |
| E33Q | -1.44 natural log |
| R30C | -1.38 natural log |
| K34A | -1.32 natural log |
| Q55H | -1.38 natural log |
| A57W | -1.37 natural log |
| L59T | -1.49 natural log |
| E32V | -1.34 natural log |
| E54I | -1.46 natural log |
| L59G | -1.42 natural log |

Set 6
Target: ABI1, truncated, D143A, DHFR fusion (Arabidopsis thaliana)
Technique: DHFR PCA, deep sequencing
Medium: yeast
Setting: methotrexate growth selection, single substitutions
Added: (+)-ABA 0.11 µM
Relative to: wild-type fitted maximum
Reading: higher = stronger binding
Starting sequence: PYL1, truncated, DHFR fusion (Arabidopsis thaliana); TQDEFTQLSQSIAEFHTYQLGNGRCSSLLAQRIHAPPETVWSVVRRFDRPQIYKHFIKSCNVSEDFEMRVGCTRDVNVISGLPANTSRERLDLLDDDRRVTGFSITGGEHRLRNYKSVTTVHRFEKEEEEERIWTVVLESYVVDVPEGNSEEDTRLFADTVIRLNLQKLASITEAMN
| Variant | relative binding score [%] |
| --- | --- |
| L164A | 14.3 |
| C60D | -6.21 |
| L8K | 8.02 |
| M176T | 16.5 |
| G148D | 10.3 |
| L169Y | 5.6 |
| R98P | -4.65 |
| W41S | -4.15 |
| V143C | 43.8 |
| T135M | -7.84 |
| L94R | -10.9 |
| F124V | 38.9 |
| L93E | -1.58 |
| T154P | -7.52 |
| I79F | 25.7 |

Mixed results
| Substance | target | test | system | conditions | scale | endpoint | value |
| --- | --- | --- | --- | --- | --- | --- | --- |
| PhoQ, residues 284 288 289 292 302 303 SVHLDV | PhoP, residues 12 14 15 18 19 LHATL (Escherichia coli, UniProt P23836) | Sort-seq, refers to: YFP reporter | E. coli | PhoQ-PhoP variant library, added: 10 µM Mg2+ | relative to: high Mg2+ state, higher = stronger signaling | fold induction | 0.957 |
